# Published values of several laboratories.
# Lines come from different studies, so protocols differ. “And” joins repeats or separate records; there may be more than shown. ± marks the error that the study gave.
SMILES,cell line,assay,test system,conditions,scale,measurement,result
Nc1ccc([N+](=O)[O-])cc1,human cells,"reporter gene, agonist, luciferase reporter",,,relative to: positive control,Emax,3.23%
CN1CCN(C2(CNC3CCN(c4cccc(-c5cc6cc(F)ccc6[nH]5)c4)CC3)CCC2)CC1,SK-MEL-5,,,,,CC50,5.64 µM
Cc1nn(-c2nc3ccc(Cl)c(Cl)c3[nH]2)c(O)c1C1OC(=O)c2ccccc21 (centres unmarked),RAW-ISG,CCK-8,,10 µM,,viability,103% and 104% and 105%
Nc1nc2nc[nH]c2c(=S)[nH]1,HCT-116,clonogenic,,"2.5 µM, 10 days",,surviving fraction,0.952
COc1cccc2c1C(=O)c1c(O)c3c(c(O)c1C2=O)C[C@@](O)(C(=O)CO)C[C@@H]3O[C@H]1C[C@H](N)[C@H](O)[C@H](C)O1,HL-60,sulforhodamine B,,"10 µg/mL, 48 h",negative means cell kill,growth percent,-9.3%
COc1c(C)c2c(c(O)c1C/C=C(\C)CCC(=O)O)C(=O)OC2,A-375,cell proliferation,skin cancer,,,IC50,0.933 µM
CC[C@H](C)[C@H](NC(=O)CNC(=O)[C@@H](N)CCCCN)C(=O)N[C@@H](CC(C)C)C(=O)N[C@@H](CCCCN)C(=O)N[C@@H](CCCNC(=N)N)C(=O)N[C@@H](CCC(=O)O)C(=O)N[C@@H](CCCCN)C(=O)N[C@@H](CCCNC(=N)N)C(=O)N[C@@H](CC(C)C)C(=O)N[C@@H](CCCNC(=N)N)C(=O)N[C@@H](CCCNC(=N)N)C(=O)N[C@@H](CCCCN)C(=O)N[C@@H](CC(N)=O)C(=O)N[C@H](C(=O)N[C@@H](Cc1c[nH]cn1)C(=O)N[C@@H](Cc1c[nH]c2ccccc12)C(=O)N1CCC[C@H]1C(=O)N[C@@H](CCC(=O)O)C(=O)N[C@@H](CCC(=O)O)C(=O)NCC(=O)N[C@@H](CCCCN)C(=O)N[C@@H](CC(C)C)C(=O)N[C@@H](CCCNC(=N)N)C(=O)N[C@@H](CCC(=O)O)C(=O)N[C@@H](Cc1ccccc1)C(=O)N[C@@H](Cc1ccccc1)C(=O)N[C@@H](Cc1ccccc1)C(=O)N[C@@H](Cc1ccccc1)C(=O)N[C@@H](CCC(=O)O)C(=O)N[C@@H](CC(C)C)C(=O)N[C@@H](CC(=O)O)C(=O)N[C@@H](CCC(=O)O)C(=O)N[C@@H](C)C(=O)N[C@@H](CCC(=O)O)C(=O)N[C@@H](CCCNC(=N)N)C(=O)N[C@H](C(=O)N[C@@H](CC(N)=O)C(=O)N[C@H](C(=O)O)C(C)C)C(C)C)C(C)C,HeLa (mitotic),"protein phosphorylation, TMT phosphoproteomics, measured: histone H3.1t Ser29",cell lysate,"concentration not given, 15 min",relative to: treated over control,log2 fold change,2.66
COc1c(CCC[P+](c2ccccc2)(c2ccccc2)c2ccccc2)cc2c(c1OC)OCO2.[I-],SN12C,SRB,,,,LC50,-4.37 log M
N.N.[Cl][Pt][Cl],SGC-7901 resistant to compound,"viability, CCK-8",,with glutamine,,IC50,43.2 µM
CC(C)[C@H](N)C(=O)N1CCC[C@H]1B(O)O,EA.hy926 GSDMD knockout,CellTiter-Glo,,concentration not given,,viability,77.5% and 77.3% and 78.8%
O=C1N(Cc2ccccc2Cl)c2ccccc2C12NN=C(c1ccccc1)S2 (centres unmarked),MDA-MB-468,"gene expression array, measured: EIF4A2 mRNA",,"10 µM, 12 h","relative to: untreated, down",fold change,1.61
CC(C)N1CCC(NC2CCN(c3cccc(-c4cc5cc(F)ccc5[nH]4)c3)CC2)CC1,SN12C,,,,,CC50,7.01 µM
N.N.[Cl][Pt][Cl],NAMALWA,"cell proliferation, CellTiter-Glo",,"10 µM, 72 h",,inhibition,100%
CCOC(=O)C1=C(N)N(c2ccc(C(=O)OCC)cc2)C(O)=C(C#N)C12C(=O)Nc1ccccc12 (centres unmarked),Caco-2,"qRT-PCR, measured: Bax",,IC50,relative to: untreated,mRNA fold change,4.19
COc1ccc2c(c1)[nH]c1c(C)nccc12,DU-145,"bisulfite pyrosequencing, measured: RASSF1A promoter CpG site 2",,concentration not given,relative to: vehicle,methylation reduction,0%
Cc1n[nH]c(C)c1CSCc1ccccc1,U-937,cytotoxicity,,,relative to: IC50 HEK293 over IC50 U-937,selectivity index,1.4
CCN(CC)c1ccc(C=NNC(=O)CSc2nc3ccccc3c(=O)n2Cc2ccc(S(N)(=O)=O)cc2)c(O)c1,SN12C,NCI five-dose screen,,,,CC50,> 100 µM
COc1cc(C(=O)c2c[nH]c3cc(-c4cccc(O)c4)ccc23)cc(OC)c1OC,MDA-MB-231,,,50 nM,,time to migration arrest,4 h
CC[C@@]1([C@@H]2O[C@@H]([C@H]3O[C@@](O)(CO)[C@H](C)C[C@@H]3C)C[C@@H]2C)CC[C@H]([C@]2(C)CC[C@]3(C[C@H](O)[C@@H](C)[C@@H]([C@@H](C)[C@@H](OC)[C@H](C)C(=O)O)O3)O2)O1,MCF-10A,cell viability,,,relative to: MCF-10A over cancer cells,selectivity index,0.3
O=S(=O)(c1ccc(O)cc1)c1ccc(O)cc1,HepG2 spheroids,Hoechst flow cytometry,,"0.01 µM, 96 h",,G2 phase cells,17.1 ± 3.61%
Nc1ncnc2c1ncn2[C@@H]1O[C@@H]2COP(=O)(O)O[C@H]3[C@@H](O)[C@H](n4cnc5c(=O)[nH]cnc54)O[C@@H]3COP(=O)(O)O[C@H]2[C@H]1O,HFF-1,"RNA sequencing, measured: Diseases of metabolism",,downregulated pathway,relative to: Zika virus alone,pathway fold enrichment,3.73
C/C1=C/C(=O)O[C@@H]2C[C@@H](CC[C@H](C)/C=C\C=C\CC1)O[C@@](OCCc1ccccc1)([C@@H]1CSC(=O)N1)C2,MDA-MB-231,MTT,,1.0 µM,,cell killing,17%
c1ccc([C@@H]2C[C@H]2NC2CCNCC2)cc1,OCI-Ly1,,,"0.5 µM, 120 h",,viability,166%
Cc1cnc2ccc3c(nc(N)n3C)c2n1,BALB/c 3T3,colony forming efficiency,,100 µM,,colony number,96 colonies per plate and 82 colonies per plate and 89 colonies per plate
Nc1ncc(-c2nc(N3CCOCC3)nc(N3CCOCC3)n2)c(C(F)F)n1,A-427,,,72 h,,GI50,0.121 µM
COc1cc(C[C@H]2COC(=O)[C@@H]2Cc2ccc(O)c(OC)c2)ccc1O,neuroblastoma M2 (+),western blot,,IC50,relative to: untreated,PARP cleavage,increased
COc1cc(CCC[P+](c2ccccc2)(c2ccccc2)c2ccccc2)c(OC)c2c1OCO2.[I-],SK-MEL-5,SRB,,,,TGI,-5.6 log M
C/C=C(/C)C(=O)O[C@H]1C(C)=C2[C@H]([C@@H]1OC(=O)CCCCCCC)[C@@](C)(OC(C)=O)C[C@H](OC(=O)CCC)[C@@]1(O)[C@H]2OC(=O)[C@@]1(C)O,HEK-293T,"RNA-seq GSEA, measured: Hallmark pancreas beta cells",,"500 nM, 6 h",direction not given,normalized enrichment score,1.43
CCC(=O)CCCCC[C@@H]1NC(=O)[C@H]2CCCCN2C(=O)[C@H]([C@@H](C)CC)NC(=O)[C@H](Cc2cn(OC)c3ccccc23)NC1=O,OCI-Ly1,,,"1 µM, 120 h",,viability,1.79%
Cn1nccc1Nc1nccc(-c2cc3c(s2)C(C)(C)N(CCN2CCOCC2)C3=O)n1,HCT116,IncuCyte,,"concentration not given, 48 (unit not given)",,PI-positive cells,29.4 count and 41.8 count and 44 count
Cn1cncc1C1=CN(c2ncnc3[nH]cnc23)CCS1,OVCAR-3,,,ovarian cancer,,CC50,> 200 µM
CC(C)(O/N=C(\C(=O)N[C@@H]1C(=O)N2C(C(=O)[O-])=C(C[n+]3ccccc3)CS[C@H]12)c1csc(N)n1)C(=O)O,Escherichia coli DH5α expressing KPC-2,bacterial growth,,,,MIC,16 µg/mL
O=C(Nc1ccc2[nH]nc(-c3ccncc3)c2c1)[C@@H]1CCN(CC(=O)N2CCN(c3ccc(-c4ncccn4)cc3)CC2)C1,HCT116,IncuCyte,,"concentration not given, 40 (unit not given)",,PI-positive cells,15.3 count and 14.2 count and 17 count
Oc1cc(Cl)ccc1Oc1ccc(Cl)cc1Cl,HepG2,"high content imaging, measured: nuclei count",,"24 h, expected PoD",,point of departure,18.7 µM
O=C1CCP(=S)(c2ccccc2)CC1,HCT-116,annexin V/PI flow cytometry,,"IC50, 72 h",,necrotic cells,1.45%
Cc1sc2c(c1C)C(c1ccc(Cl)cc1)=N[C@@H](CC(N)=O)c1nnc(C)n1-2,OCI-Ly1,,,"1 µM, 120 h",,viability,19.7%
COc1ccc([C@H]2c3[nH]c4ccc(Cl)cc4c3CCN2C(=O)Oc2ccc(Cl)cc2)cc1,human dermal fibroblasts with PBMC,"cytokine secretion, measured: sIL-2",,"0.1 µM, 48 h",,inhibition,68%
Cc1cc(C(C)(C)c2ccc(O)c(C)c2)ccc1O,HepG2 spheroids,Hoechst flow cytometry,,"40 µM, 24 h",,S phase cells,6.85 ± 1.24%
COc1ccc(NC(=O)Nc2ccc3c(c2)C=CCP(=O)(O)O3)cc1,A-375,"cell proliferation, MTT",,"100 µM, 72 h, normoxia",,maximal inhibition,50%
C[C@]12CC[C@H](O)C[C@H]1CC[C@@H]1[C@@H]2CC[C@]2(C)[C@@H](c3ccc(=O)oc3)CC[C@]12O,MCF7,"RT-qPCR, measured: SIAH2",,"50 nM, 48 h, without estradiol, unit not given",relative to: untreated,mRNA level,0.122 and 0.157 and 0.194
Oc1ccc(C(c2ccc(O)cc2)(C(F)(F)F)C(F)(F)F)cc1,HepG2 spheroids,Hoechst flow cytometry,,"0.01 µM, 96 h",,G1 phase cells,71.8 ± 2.4%

# Excerpt of the above:
SMILES,cell line,assay,test system,conditions,scale,measurement,result
Cc1sc2c(c1C)C(c1ccc(Cl)cc1)=N[C@@H](CC(N)=O)c1nnc(C)n1-2,OCI-Ly1,,,"1 µM, 120 h",,viability,19.7%
Cn1nccc1Nc1nccc(-c2cc3c(s2)C(C)(C)N(CCN2CCOCC2)C3=O)n1,HCT116,IncuCyte,,"concentration not given, 48 (unit not given)",,PI-positive cells,29.4 count and 41.8 count and 44 count
CCN(CC)c1ccc(C=NNC(=O)CSc2nc3ccccc3c(=O)n2Cc2ccc(S(N)(=O)=O)cc2)c(O)c1,SN12C,NCI five-dose screen,,,,CC50,> 100 µM
CC(C)[C@H](N)C(=O)N1CCC[C@H]1B(O)O,EA.hy926 GSDMD knockout,CellTiter-Glo,,concentration not given,,viability,77.5% and 77.3% and 78.8%
Cn1cncc1C1=CN(c2ncnc3[nH]cnc23)CCS1,OVCAR-3,,,ovarian cancer,,CC50,> 200 µM
N.N.[Cl][Pt][Cl],NAMALWA,"cell proliferation, CellTiter-Glo",,"10 µM, 72 h",,inhibition,100%
C/C1=C/C(=O)O[C@@H]2C[C@@H](CC[C@H](C)/C=C\C=C\CC1)O[C@@](OCCc1ccccc1)([C@@H]1CSC(=O)N1)C2,MDA-MB-231,MTT,,1.0 µM,,cell killing,17%
